# Assay results pooled from the literature.
# Every numbered part comes from another study and shows a few of its results, in no order.

# Block 1
# Target: RNA binding protein fox-1 homolog 2, RRM domain, GST-SBP tag (RBFOX2, Homo sapiens, UniProt O43251-10, residues 100-194)
# Method: RNA Bind-n-Seq
# Molecule type: RNA
# Medium: in vitro
# Concentration: 365 nM
# Setting: natural RNA segment, single round, ends assumed
# Baseline: no-protein control
# Direction: higher = stronger binding
# Constant ends, left off below: GGGAGUUCUACAGUCCGACGAUC … UGGAAUUCUCGGGUGCCAA
# Target sequence (chain): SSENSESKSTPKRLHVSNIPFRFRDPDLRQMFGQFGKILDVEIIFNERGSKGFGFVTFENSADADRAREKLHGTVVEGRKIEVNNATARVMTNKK
Sequence,RBNS enrichment (R)
CACCCUAGAUCCAGCCUCAGGAACUAACAAGUUUUGAGAAAAGCAGGUAGUAGAGCAGCAGCUUCGUGCUCUCAGCGGUGGCUGGCUGGCAUUUUUCUCUAGCGUUGUGG,0.64
AGCUAUGAAUGUAUUUGCUUCUAAAACCUCCCAAAGUGAAUCUAAUCUUAAAACUACAAGUUGUAAGUAUUCUGAAAUUGGGAAACAUUUAUUUUAAAUGCAAUCAGGUA,0.393
CCAGUAAUGCACUUCCUUCAAAAGACCCCACCUCCUAAUCCUUGUAAUCUUCCUCAAACCAGUUCUGGGCUCUAGUGACUAGACAUUCAAAUAUAUGAGCCUAUGGGAAC,0.569
AUGGCUUCAGGAGACUUCAGUUUUUUGUUUAGCUACAUGAUUGAAUGCAUAAUAAAUGCUUUGUGCUUCUGACUAUCAAUACCUAAAGAAAGUGCAUCAGUGAAGAGAUG,0.246
AAAUUUUGUUAGGCCACAAAAACACUGCACUGUGAACAUUUUAGAAAAGGUAUGUCAGACUGGGAUUAAUGACAGCAUGAUUUUCAAUGACUGUAAAUUGCGAUAAGGAA,4.69

# Block 2
# Target: Histone acetyltransferase KAT6A, winged helix 2, GST fusion (KAT6A, Homo sapiens, UniProt Q92794, residues 85-181)
# Method: protein binding microarray
# Molecule type: double-stranded DNA, one strand shown
# Medium: in vitro
# Concentration: not given
# Setting: 8-mer, flanks averaged, mean of 2 arrays, mostly near background
# Baseline: not given
# Direction: higher = stronger binding
# Residues (chain): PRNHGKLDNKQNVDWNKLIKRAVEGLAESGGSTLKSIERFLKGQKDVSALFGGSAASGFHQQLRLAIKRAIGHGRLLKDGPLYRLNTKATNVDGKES
Sequence,E-score
AGTCACTA,-0.173
AGTTATGC,0.0484
ACACTACT,0.0309
GCCTACGA,0.0135
AATGTGAA,0.00626
AATCACAC,0.134

# Mixed results
# UNK zinc fingers 1-6, GST-SBP tag: RING finger protein unkempt homolog, zinc fingers 1-6, GST-SBP tag (UNK, Homo sapiens, UniProt Q9C0B0, residues 30-357)
# UniProt Q9C0B0, sequence (30-357, looked up): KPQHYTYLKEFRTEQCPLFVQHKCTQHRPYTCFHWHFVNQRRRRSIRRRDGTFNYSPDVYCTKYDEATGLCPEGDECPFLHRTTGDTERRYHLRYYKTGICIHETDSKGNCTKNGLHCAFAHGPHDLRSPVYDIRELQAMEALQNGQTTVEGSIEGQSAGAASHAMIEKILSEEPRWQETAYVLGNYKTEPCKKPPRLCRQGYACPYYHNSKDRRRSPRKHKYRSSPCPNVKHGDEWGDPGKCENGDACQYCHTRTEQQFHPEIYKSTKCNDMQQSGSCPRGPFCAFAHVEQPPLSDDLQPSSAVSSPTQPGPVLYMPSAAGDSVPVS
Molecule,target,assay,test system,conditions,scale,measurement,value
GGGAGUUCUACAGUCCGACGAUCUAAAUUAGGGCUGCCGUUUUCUGUUUCUCCCUGGGCUGCGGAAAGCCAGAAGAUUUUAUCUAGCUUAUACAAGGCUGCUGGUGUUCCCUCCCUCCCGCCACGAGGGUUUUUUUUCCAGCACAACAGAGGAUUGAGCAUCA,"UNK zinc fingers 1-6, GST-SBP tag",RNA Bind-n-Seq,"RNA, in vitro","not given, RNA with constant flanks, human-mouse chimeric sites, ends assumed","baseline: input RNA pool, higher = stronger binding",bound/input enrichment,0.849 ratio
"PhoQ, residues 284 288 289 292 302 303 GTAMQF","PhoP, residues 12 14 15 18 19 AWHSL (Escherichia coli, UniProt P23836)","Sort-seq, measured: YFP reporter",E. coli,"PhoQ-PhoP variant library, with: 10 µM Mg2+","baseline: high Mg2+ state, higher = stronger signaling",fold induction,2.1
GGGAGUUCUACAGUCCGACGAUCCUUAAUGAUAUUUUGAGUGAAUAAAUGAAGCUAAAAUGUCUGCUUUUGGUACAACACGCAUUAGCGAAAGGUUAAGUUUUGUUUUCCACUGAAGUACUAUUUAACAUCUCAGAAAAAAACCAACAGAGGAUUGAGCAUCA,"UNK zinc fingers 1-6, GST-SBP tag",RNA Bind-n-Seq,"RNA, in vitro","not given, RNA with constant flanks, human-mouse chimeric sites, ends assumed","baseline: input RNA pool, higher = stronger binding",bound/input enrichment,0.216 ratio

# A few entries again (block 2):
Sequence,E-score
AGTCACTA,-0.173
AGTTATGC,0.0484
